# Assay results gathered from unrelated publications.
# Lines come from different studies, so protocols differ.
# Partner: itself
# B1: ph-p SAM 1397-1577 D16K/D17R (Drosophila melanogaster, UniProt P39769); sequence looked up; chain GVGSGETNGLGTGGIVGVDAMALVDRLDEAMAEEKMQTEATPKLSESFPILGASTEVPPMSLPVQAAISAPSPLAMPLGSPLSVALPTLAPLSVVTSGAAPKSSEVNGTDRPPISSWSVKRVSNFIRELPGCQDYVDDFIQQEIDGQALLLLKEKHLVNAMGMKLGPALKIVAKVESIKEV
# B2: ADAR1 127-end 127-1226 D1023A (human, UniProt P55265); sequence looked up; chain SSHFQELSIYQDQEQRILKFLEELGEGKATTAHDLSGKLGTPKKEINRVLYSLAKKGKLQKEAGTPPLWKIAVSTQAWNQHSGVVRPDGHSQGAPNSDPSLEPEDRNSTSVSEDLLEPFIAVSAQAWNQHSGVVRPDSHSQGSPNSDPGLEPEDSNSTSALEDPLEFLDMAEIKEKICDYLFNVSDSSALNLAKNIGLTKARDINAVLIDMERQGDVYRQGTTPPIWHLTDKKRERMQIKRNTNSVPETAPAAIPETKRNAEFLTCNIPTSNASNNMVTTEKVENGQEPVIKLENRQEARPEPARLKPPVHYNGPSKAGYVDFENGQWATDDIPDDLNSIRAAPGEFRAIMEMPSFYSHGLPRCSPYKKLTECQLKNPISGLLEYAQFASQTCEFNMIEQSGPPHEPRFKFQVVINGREFPPAEAGSKKVAKQDAAMKAMTILLEEAKAKDSGKSEESSHYSTEKESEKTAESQTPTPSATSFFSGKSPVTTLLECMHKLGNSCEFRLLSKEGPAHEPKFQYCVAVGAQTFPSVSAPSKKVAKQMAAEEAMKALHGEATNSMASDNQPEGMISESLDNLESMMPNKVRKIGELVRYLNTNPVGGLLEYARSHGFAAEFKLVDQSGPPHEPKFVYQAKVGGRWFPAVCAHSKKQGKQEAADAALRVLIGENEKAERMGFTEVTPVTGASLRRTMLLLSRSPEAQPKTLPLTGSTFHDQIAMLSHRCFNTLTNSFQPSLLGRKILAAIIMKKDSEDMGVVVSLGTGNRCVKGDSLSLKGETVNDCHAEIISRRGFIRFLYSELMKYNSQTAKDSIFEPAKGGEKLQIKKTVSFHLYISTAPCGDGALFDKSCSDRAMESTESRHYPVFENPKQGKLRTKVENGEGTIPVESSDIVPTWAGIRLGERLRTMSCSDKILRWNVLGLQGALLTHFLQPIYLKSVTLGYLFSQGHLTRAICCRVTRDGSAFEDGLRHPFIVNHPKVGRVSIYDSKRQSGKTKETSVNWCLADGYDLEILDGTRGTVDGPRNELSRVSKKNIFLLFKKLCSFRYRRDLLRLSYGEAKKAARDYETAKNYFKKGLKDMGYGNWISKPQEEKNFYLCPV
# B3: XPR1 Y22A/E23A/K26A (Homo sapiens, UniProt Q9UBH6); sequence looked up; chain MKFAEHLSAHITPEWRKQYIQAAAFADMLYSAQDQAPSVEVTDEDTVKRYFAKFEEKFFQTCEKELAKINTFYSEKLAEAQRRFATLQNELQSSLDAQKESTGVTTLRQRRKPVFHLSHEERVQHRNIKDLKLAFSEFYLSLILLQNYQNLNFTGFRKILKKHDKILETSRGADWRVAHVEVAPFYTCKKINQLISETEAVVTNELEDGDRQKAMKRLRVPPLGAAQPAPAWTTFRVGLFCGIFIVLNITLVLAAVFKLETDRSIWPLIRIYRGGFLLIEFLFLLGINTYGWRQAGVNHVLIFELNPRSNLSHQHLFEIAGFLGILWCLSLLACFFAPISVIPTYVYPLALYGFMVFFLINPTKTFYYKSRFWLLKLLFRVFTAPFHKVGFADFWLADQLNSLSVILMDLEYMICFYSLELKWDESKGLLPNNSEESGICHKYTYGVRAIVQCIPAWLRFIQCLRRYRDTKRAFPHLVNAGKYSTTFFMVTFAALYSTHKERGHSDTMVFFYLWIVFYIISSCYTLIWDLKMDWGLFDKNAGENTFLREEIVYPQKAYYYCAIIEDVILRFAWTIQISITSTTLLPHSGDIIATVFAPLEVFRRFVWNFFRLENEHLNNCGEFRAVRDISVAPLNADDQTLLEQMMDQDDGVRNRQKNRSWKYNQSISLRRPRLASQSKARDTKVLIEDTDDEANT
# B4: SPOP D130E (Homo sapiens, UniProt O43791); sequence looked up; chain MSRVPSPPPPAEMSSGPVAESWCYTQIKVVKFSYMWTINNFSFCREEMGEVIKSSTFSSGANDKLKWCLRVNPKGLDEESKDYLSLYLLLVSCPKSEVRAKFKFSILNAKGEETKAMESQRAYRFVQGKEWGFKKFIRRDFLLDEANGLLPDDKLTLFCEVSVVQDSVNISGQNTMNMVKVPECRLADELGGLWENSRFTDCCLCVAGQEFQAHKAILAARSPVFSAMFEHEMEESKKNRVEINDVEPEVFKEMMCFIYTGKAPNLDKMADDLLAAADKYALERLKVMCEDALCSNLSVENAAEILILADLHSADQLKTQAVDFINYHASDVLETSGWKSMVVSHPHLVAEAYRSLASAQCPFLGPPRKRLKQS
# B5: TOP2 C180A/C731A/Q807C (Saccharomyces cerevisiae, UniProt P06786); AlexaFluor 488/546 labels; sequence looked up; chain MSTEPVSASDKYQKISQLEHILKRPDTYIGSVETQEQLQWIYDEETDCMIEKNVTIVPGLFKIFDEILVNAADNKVRDPSMKRIDVNIHAEEHTIEVKNDGKGIPIEIHNKENIYIPEMIFGHLLTSSNYDDDEKKVTGGRNGYGAKLCNIFSTEFILETADLNVGQKYVQKWENNMSIAHPPKITSYKKGPSYTKVTFKPDLTRFGMKELDNDILGVMRRRVYDINGSVRDINVYLNGKSLKIRNFKNYVELYLKSLEKKRQLDNGEDGAAKSDIPTILYERINNRWEVAFAVSDISFQQISFVNSIATTMGGTHVNYITDQIVKKISEILKKKKKKSVKSFQIKNNMFIFINCLIENPAFTSQTKEQLTTRVKDFGSRCEIPLEYINKIMKTDLATRMFEIADANEENALKKSDGTRKSRITNYPKLEDANKAGTKEGYKCTLVLTEGDSALSLAVAGLAVVGRDYYGCYPLRGKMLNVREASADQILKNAEIQAIKKIMGLQHRKKYEDTKSLRYGHLMIMTDQDHDGSHIKGLIINFLESSFPGLLDIQGFLLEFITPIIKVSITKPTKNTIAFYNMPDYEKWREEESHKFTWKQKYYKGLGTSLAQEVREYFSNLDRHLKIFHSLQGNDKDYIDLAFSKKKADDRKEWLRQYEPGTVLDPTLKEIPISDFINKELILFSLADNIRSIPNVLDGFKPGQRKVLYGCFKKNLKSELKVAQLAPYVSEATAYHHGEQSLAQTIIGLAQNFVGSNNIYLLLPNGAFGTRATGGKDAAAARYIYTELNKLTRKIFHPADDPLYKYICEDEKTVEPEWYLPILPMILVNGAEGIGTGWSTYIPPFNPLEIIKNIRHLMNDEELEQMHPWFRGWTGTIEEIEPLRYRMYGRIEQIGDNVLEITELPARTWTSTIKEYLLLGLSGNDKIKPWIKDMEEQHDDNIKFIITLSPEEMAKTRKIGFYERFKLISPISLMNMVAFDPHGKIKKYNSVNEILSEFYYVRLEYYQKRKDHMSERLQWEVEKYSFQVKFIKMIIEKELTVTNKPRNAIIQELENLGFPRFNKEGKPYYGSPNDEIAEQINDVKGATSDEEDEESSHEDTENVINGPEELYGTYEYLLGMRIWSLTKERYQKLLKQKQEKETELENLLKLSAKDIWNTDLKAFEVGYQEFLQRDAEARGGNVPNKGSKTKGKGKRKLVDDEDYDPSKKNKKSTARKGKKIKLEDKNFERILLEQKLVTKSKAPTKIKKEKTPSVSETKTEEEENAPSSTSSSSIFDIKKEDKDEGELSKISNKFKKISTIFDKMGSTSATSKENTPEQDDVATKKNQTTAKKTAVKPKLAKKPVRKQQKVVELSGESDLEILDSYTDREDSNKDEDDAIPQRSRRQRSSRAASVPKKSYVETLELSDDSFIEDDEEENQGSDVSFNEED
# B6: mgtA 32-898 (Escherichia coli, UniProt P0ABB8); sequence looked up; chain TVVPPSLSAHCLKMAVMPEEELWKTFDTHPEGLNQAEVESAREQHGENKLPAQQPSPWWVHLWVCYRNPFNILLTILGAISYATEDLFAAGVIALMVAISTLLNFIQEARSTKAADALKAMVSNTATVLRVINDKGENGWLEIPIDQLVPGDIIKLAAGDMIPADLRILQARDLFVAQASLTGESLPVEKAATTRQPEHSNPLECDTLCFMGTTVVSGTAQAMVIATGANTWFGQLAGRVSEQESEPNAFQQGISRVSMLLIRFMLVMAPVVLLINGYTKGDWWEAALFALSVAVGLTPEMLPMIVTSTLARGAVKLSKQKVIVKHLDAIQNFGAMDILCTDKTGTLTQDKIVLENHTDISGKTSERVLHSAWLNSHYQTGLKNLLDTAVLEGTDEESARSLASRWQKIDEIPFDFERRRMSVVVAENTEHHQLVCKGALQEILNVCSQVRHNGEIVPLDDIMLRKIKRVTDTLNRQGLRVVAVATKYLPAREGDYQRADESDLILEGYIAFLDPPKETTAPALKALKASGITVKILTGDSELVAAKVCHEVGLDAGEVVIGSDIETLSDDELANLAQRTTLFARLTPMHKERIVTLLKREGHVVGFMGDGINDAPALRAADIGISVDGAVDIAREAADIILLEKSLMVLEEGVIEGRRTFANMLKYIKMTASSNFGNVFSVLVASAFLPFLPMLPLHLLIQNLLYDVSQVAIPFDNVDDEQIQKPQRWNPADLGRFMIFFGPISSIFDILTFCLMWWVFHANTPETQTLFQSGWFVVGLLSQTLIVHMIRTRRVPFIQSCASWPLMIMTVIVMIVGIALPFSPLASYLQLQALPLSYFPWLVAILAGYMTLTQLVKGFYSRRYGWQ
# B7: VANGL1 H340A/Y345A/E349A (Homo sapiens, UniProt Q8TAA9-1); sequence looked up; chain MDTESTYSGYSYYSSHSKKSHRQGERTRERHKSPRNKDGRGSEKSVTIQPPTGEPLLGNDSTRTEEVQDDNWGETTTAITGTSEHSISQEDIARISKDMEDSVGLDCKRYLGLTVASFLGLLVFLTPIAFILLPPILWRDELEPCGTICEGLFISMAFKLLILLIGTWALFFRKRRADMPRVFVFRALLLVLIFLFVVSYWLFYGVRILDSRDRNYQGIVQYAVSLVDALLFIHYLAIVLLELRQLQPMFTLQVVRSTDGESRFYSLGHLSIQRAALVVLENYYKDFTIYNPNLLTASKFRAAKHMAGLKVYNVDGPSNNATGQSRAMIAAAARRRDSSANELYAEEAAHERRVKKRKARLVVAVEEAFIHIQRLQAEEQQKAPGEVMDPREAAQAIFPSMARALQKYLRITRQQNYHSMESILQHLAFCITNGMTPKAFLERYLSAGPTLQYDKDRWLSTQWRLVSDEAVTNGLRDGIVFVLKCLDFSLVVNVKKIPFIILSEEFIDPKSHKFVLRLQSETSV
# B8: C1S 16-292 (Homo sapiens, UniProt P09871); chain EPTMYGEILSPNYPQAYPSEVEKSWDIEVPEGYGIHLYFTHLDIELSENCAYDSVQIISGDTEEGRLCGQRSSNNPHSPIVEEFQVPYNKLQVIFKSDFSNEERFTGFAAYYVATDINECTDFVDVPCSHFCNNFIGGYFCSCPPEYFLHDDMKNCGVNCSGDVFTALIGEIASPNYPKPYPENSRCEYQIRLEKGFQVVVTLRREDFDVEAADSAGNCLDSLVFVAGDRQFGPYCGHGFPGPLNIETKSNALDIIFQTDLTGQKKGWKLRYHGDPM
# B9: cheA 1-654 (Escherichia coli, UniProt P07363); chain MSMDISDFYQTFFDEADELLADMEQHLLVLQPEAPDAEQLNAIFRAAHSIKGGAGTFGFSVLQETTHLMENLLDEARRGEMQLNTDIINLFLETKDIMQEQLDAYKQSQEPDAASFDYICQALRQLALEAKGETPSAVTRLSVVAKSEPQDEQSRSQSPRRIILSRLKAGEVDLLEEELGHLTTLTDVVKGADSLSAILPGDIAEDDITAVLCFVIEADQITFETVEVSPKISTPPVLKLAAEQAPTGRVEREKTTRSNESTSIRVAVEKVDQLINLVGELVITQSMLAQRSSELDPVNHGDLITSMGQLQRNARDLQESVMSIRMMPMEYVFSRYPRLVRDLAGKLGKQVELTLVGSSTELDKSLIERIIDPLTHLVRNSLDHGIELPEKRLAAGKNSVGNLILSAEHQGGNICIEVTDDGAGLNRERILAKAASQGLTVSENMSDDEVAMLIFAPGFSTAEQVTDVSGRGVGMDVVKRNIQKMGGHVEIQSKQGTGTTIRILLPLTLAILDGMSVRVADEVFILPLNAVMESLQPREADLHPLAGGERVLEVRGEYLPIVELWKVFNVAGAKTEATQGIVVILQSGGRRYALLVDQLIGQHQVVVKNLESNYRKVPGISAATILGDGSVALIVDVSALQAINREQRMANTAA
# B10: exbD 61-141 (Escherichia coli, UniProt P0ABV2); sequence looked up; chain EKPVYLSVKADNSMFIGNDPVTDETMITALNALTEGKKDTTIFFRADKTVDYETLMKVMDTLHQAGYLKIGLVGEETAKAK
Molecule,assay,test system,setting,binding
B1 (ph-p SAM 1397-1577 D16K/D17R),AUC,,,binds
B2 (ADAR1 127-end 127-1226 D1023A),SEC,,,binds
B3 (XPR1 Y22A/E23A/K26A),cryo-EM,,,binds
B4 (SPOP D130E),negative-stain TEM,,,binds
B5 (TOP2 C180A/C731A/Q807C),FRET or BRET,,"together with: ADP, ATP, ADPNP",binds
"PYNNQGQQQNMESSG (TAF15 82-96 (Homo sapiens, UniProt Q92804); N-acetyl/C-amide; sequence looked up)",negative-stain TEM,peptide,peptide,binds
B6 (mgtA 32-898),native gel or EMSA,,,binds
B7 (VANGL1 H340A/Y345A/E349A),native gel or EMSA,,,binds
B8 (C1S 16-292),cryo-EM,,,binds
B9 (cheA 1-654),HDX-MS,,dimer-monomer exchange,binds
B10 (exbD 61-141),crystal structure,,,binds

# A few entries again:
Molecule,assay,test system,setting,binding
B7 (VANGL1 H340A/Y345A/E349A),native gel or EMSA,,,binds
